# Experimental data pooled from the literature.
# Each line is one published result; not all experiments were run side by side. “And” joins repeats or separate records; there may be more than shown. Numbers after ± are the reported error.
Structure (SMILES),tested on,test,test system,conditions,how to read,endpoint,value
CC(C)(C)NCCc1c[nH]c2cccc(O)c12.CC(C)(C)NCCc1c[nH]c2cccc(O)c12.O=C(O)/C=C/C(=O)O,,,C57BL/6J mice,"subcutaneous, 0.1 mg/kg, 30 min",,distance travelled,2530 ± 261 cm
CCCCCCCCCCCCCCCC[N+](C)(C)CCCCCC[N+](C)(C)CCCCCCCCCCCCCCCC.[Br-].[Br-],influenza A virus A/PR/8/34 (H1N1),,,"concentration not given, post-treatment",,protection,59.2 ± 9.9%
CCCCC1(CCCC)CN(c2ccccc2)c2cc(SC)c(OCC(=O)N[C@@H](C(=O)NCC(=O)O)c3ccccc3)cc2S(=O)(=O)C1,,measured: LDL cholesterol,"human, serum","5 mg once daily, day 14",,serum LDL-C,96 mg/dL
CCCCCCCCCCCC[N+](C)(C)CCCCCC[N+](C)(C)CCCCCCCCCCCC.[Br-].[Br-],influenza A virus A/PR/8/34 (H1N1),,,"concentration not given, co-treatment",,protection,58.1 ± 5.9%
C=CCN1CC[C@]23c4c5ccc(O)c4O[C@H]2C(=O)CC[C@@]3(O)[C@H]1C5,,tail-flick test,male ICR-CD1 mice,"subcutaneous, 5 mg/kg, 15 min",,% MPE,2.95% and 0.79% and -1.43% and -0.51% and 1.31% and -3.53%
CC(C)N1CCC(NC2CCN(c3cccc(-c4cc5cc(F)ccc5[nH]4)c3)CC2)CC1,NCI-H322M,,,,,GI50,1.63 µM
CCCCCCCCCCCCCCCC[N+](C)(C)Cc1ccc(C[N+](C)(C)CCCCCCCCCCCCCCCC)cc1.[Br-].[Br-],influenza A virus A/PR/8/34 (H1N1),,,"concentration not given, co-treatment",,HA titre reduction,1.5 ± 0.5 log units
CN1CCN(C2(CNC3CCN(c4cccc(-c5cc6cc(F)ccc6[nH]5)c4)CC3)CCC2)CC1,NCI-H23,,,,,CC50,6.2 µM
CCNCCc1c[nH]c2cccc(O)c12.CCNCCc1c[nH]c2cccc(O)c12.O=C(O)CCC(=O)O,,,C57BL/6J mice,"subcutaneous, 1 mg/kg, 30 min session",,distance travelled,2420 ± 191 cm
CCCCCCCCCCCCCCCCCC[N+](C)(C)CCCCCCCCCC[N+](C)(C)CCCCCCCCCCCCCCCCCC.[Br-].[Br-],influenza A virus A/PR/8/34 (H1N1),,,"concentration not given, co-treatment",,protection,83.3 ± 5.9%
COc1ccc(-n2nc(C(C)=O)s/c2=N\N=C(/C)c2ccc(NC(C)=O)cc2)cc1,WI-38,,,10 µM,,toxicity,95.7%
CC(CCCN(CCCl)CCCl)Nc1ccnc2cc(Cl)ccc12.O=C(O)c1cc2ccccc2c(Cc2c(O)c(C(=O)O)cc3ccccc23)c1O,Dengue virus type 2,"viral replication, Rluc reporter replicon",BHK-21 DENV2 replicon cells,"50 µM, 24 h",,inhibition,47.5 ± 4.9%
O=C(O)/C=C/C(=O)O.Oc1cccc2[nH]cc(CCNCc3ccccc3)c12,,,C57BL/6J mice,"subcutaneous, 3 mg/kg",,head twitch count,26.8 ± 1.3
COc1c(CCC[P+](c2ccccc2)(c2ccccc2)c2ccccc2)cc2c(c1OC)OCO2.[I-],NCI-H322M,SRB,,,,TGI,-4.5 log M
CCCNCCc1c[nH]c2cccc(O)c12.CCCNCCc1c[nH]c2cccc(O)c12.O=C(O)/C=C/C(=O)O,,,C57BL/6J mice,"subcutaneous, 30 mg/kg, 30 min",,distance travelled,1340 ± 96 cm
C[C@]12CC[C@H]3[C@@H](CC=C4CC(O)CC[C@@]43CO)[C@@H]1CCC2O (stereo partly drawn),,TUNEL,"rat, GAN diet-induced MASH, liver",dose not given,baseline: vehicle,hepatocyte cell death,decreased
O=C(Cc1cccc(I)c1)N[C@H]1CCOC1=O,ExpR2 (Pectobacterium carotovorum),"cellulase activity, agonist","Pectobacterium carotovorum, single-ExpR2 strain","200 µM, 4 h",baseline: OHHL,activation,61%
CCCCCCCCCCCCCCCC[N+](C)(C)CCCCCCCCCCCC[N+](C)(C)CCCCCCCCCCCCCCCC.[Br-].[Br-],influenza A virus A/PR/8/34 (H1N1),,,"concentration not given, co-treatment",,HA titre reduction,5 log units
CC[C@H](C)[C@@H]1NC(=O)[C@@H]2CCCN2C(=O)[C@H](CC(C)C)NC(=O)[C@H](CC(C)C)NC(=O)CNC(=O)[C@@H](NC(=O)[C@@H](NC(=O)[C@H](CC(=O)O)NC(=O)CNC(=O)[C@@H](NC(=O)[C@H](C)NC(=O)CNC(=O)[C@H](CCCCN)NC(=O)[C@H](CC(C)C)NC(=O)[C@H](CC(C)C)NC(=O)[C@H](CCCCN)NC(=O)CNC(=O)[C@@H](NC(=O)[C@@H](N)CC(C)C)C(C)C)C(C)C)C(C)C)CSSC[C@@H](C(=O)O)NC1=O,,"RNA-seq, measured: Il18r1","mouse, traumatic brain injury model, frontal cortex and hippocampus",dose not given,baseline: TBI alone,log2 fold change,-2.05
C=CCNCCc1c[nH]c2cccc(O)c12.C=CCNCCc1c[nH]c2cccc(O)c12.O=C(O)/C=C/C(=O)O,,,C57BL/6J mice,"subcutaneous, 0.3 mg/kg, 30 min",,distance travelled,2450 ± 139 cm
CC[C@H](C)[C@H](NC(=O)[C@H](C)NC(=O)[C@H](CCCCN)NC(=O)[C@H](CC(C)C)NC(=O)[C@H](C)NC(=O)[C@@H](NC(=O)[C@H](Cc1c[nH]cn1)NC(=O)[C@H](CC(C)C)NC(=O)[C@@H](NC(=O)[C@@H](NC(=O)[C@H](CCCCN)NC(=O)[C@H](C)NC(=O)[C@H](C)NC(=O)[C@H](CO)NC(=O)[C@H](CCCCN)NC(=O)[C@H](Cc1ccccc1)NC(=O)[C@@H](NC(=O)[C@H](CCCCN)NC(=O)[C@H](CC(C)C)NC(=O)[C@H](Cc1ccccc1)NC(=O)[C@H](CO)NC(=O)[C@H](CCCCN)NC(=O)[C@H](Cc1c[nH]c2ccccc12)NC(=O)[C@H](CCCCN)NC(C)=O)[C@@H](C)O)[C@@H](C)O)C(C)C)[C@@H](C)O)C(=O)N[C@@H](CO)C(=O)N[C@@H](CO)C(N)=O,Streptococcus pyogenes,,erythromycin-resistant,19 strains,,MIC90,32 µg/mL
CCCCNCCc1c[nH]c2cccc(O)c12.O=C(O)/C=C/C(=O)O,,,C57BL/6J mice,"subcutaneous, 3 mg/kg, 30 min",,distance travelled,2720 ± 314 cm
CC(=O)NC[C@H]1CN(c2ccc(N3CCOCC3)c(F)c2)C(=O)O1,Enterococcus faecalis,,"vancomycin-intermediate, 10 isolates",pH 7.0,,MIC50,2 µg/mL
C[C@H]1O[C@@H](O[C@H]2CC[C@@]3(C)[C@@H](CC[C@]4(C)[C@@H]3C=C[C@]35OC[C@@]6(CCC(C)(C)C[C@H]63)[C@@H](O)C[C@]54C)[C@]2(C)CO)[C@H](O)[C@@H](O[C@@H]2O[C@H](CO)[C@@H](O)[C@H](O)[C@H]2O)[C@H]1O,,,"mouse, chronic-plus-binge ethanol, AAV8-TBG-Null, liver","dose not given, high dose",,hepatic total cholesterol,0.135 mmol/g protein and 0.124 mmol/g protein and 0.166 mmol/g protein and 0.0979 mmol/g protein and 0.085 mmol/g protein and 0.103 mmol/g protein
CCCCCCCCCCCCCCCC[N+](C)(C)CCCCCCCCCC[N+](C)(C)CCCCCCCCCCCCCCCC.[Br-].[Br-],influenza A virus A/PR/8/34 (H1N1),,,"concentration not given, post-treatment",,HA titre reduction,1 log units
CS(=O)(=O)Nc1ncn(-c2cc(F)c(COc3ccc(OS(=O)(=O)F)cc3)c(F)c2)n1,Mycobacterium tuberculosis,MABA,H37Rv,,,MIC90,0.039 µM
COc1cc(CCC[P+](c2ccccc2)(c2ccccc2)c2ccccc2)c(OC)c2c1OCO2.[I-],HCT-15,SRB,,,,TGI,> -4 log M
O=c1ccn([C@@H]2O[C@](F)(CO)[C@@H](O)[C@H]2O)c(=O)[nH]1,human respiratory syncytial virus,,recombinant reporter virus,"concentration not given, scale 0 to 100, together with: adenosine 0.4 µM",,normalized viral replication,1.86 and 2.19 and 1.12
CC(C)NCCc1c[nH]c2cccc(O)c12.O=C(O)/C=C/C(=O)O,,,C57BL/6J mice,"subcutaneous, 0.3 mg/kg",,head twitch count,6.3 ± 0.4
CN1CCN(S(=O)(=O)c2cc([N+](=O)[O-])ccc2N(CCOS(C)(=O)=O)CCOS(C)(=O)=O)CC1,,,"NSG mice, sample DA PDX","intraperitoneal, 25 mg/kg weekly x3",,event-free survival,> 371 days

# Some of these lines once more:
Structure (SMILES),tested on,test,test system,conditions,how to read,endpoint,value
CC[C@H](C)[C@@H]1NC(=O)[C@@H]2CCCN2C(=O)[C@H](CC(C)C)NC(=O)[C@H](CC(C)C)NC(=O)CNC(=O)[C@@H](NC(=O)[C@@H](NC(=O)[C@H](CC(=O)O)NC(=O)CNC(=O)[C@@H](NC(=O)[C@H](C)NC(=O)CNC(=O)[C@H](CCCCN)NC(=O)[C@H](CC(C)C)NC(=O)[C@H](CC(C)C)NC(=O)[C@H](CCCCN)NC(=O)CNC(=O)[C@@H](NC(=O)[C@@H](N)CC(C)C)C(C)C)C(C)C)C(C)C)CSSC[C@@H](C(=O)O)NC1=O,,"RNA-seq, measured: Il18r1","mouse, traumatic brain injury model, frontal cortex and hippocampus",dose not given,baseline: TBI alone,log2 fold change,-2.05
O=c1ccn([C@@H]2O[C@](F)(CO)[C@@H](O)[C@H]2O)c(=O)[nH]1,human respiratory syncytial virus,,recombinant reporter virus,"concentration not given, scale 0 to 100, together with: adenosine 0.4 µM",,normalized viral replication,1.86 and 2.19 and 1.12
C=CCNCCc1c[nH]c2cccc(O)c12.C=CCNCCc1c[nH]c2cccc(O)c12.O=C(O)/C=C/C(=O)O,,,C57BL/6J mice,"subcutaneous, 0.3 mg/kg, 30 min",,distance travelled,2450 ± 139 cm
CN1CCN(S(=O)(=O)c2cc([N+](=O)[O-])ccc2N(CCOS(C)(=O)=O)CCOS(C)(=O)=O)CC1,,,"NSG mice, sample DA PDX","intraperitoneal, 25 mg/kg weekly x3",,event-free survival,> 371 days
